# Measured values collected from several papers.
# Lines come from different studies, so protocols differ. “And” joins repeats or separate records; there may be more than shown. ± marks the error that the study gave.
SMILES,assay,system,setting,scale,endpoint,value
C=C(NC(=O)c1csc(-c2nc3c(cc2O)-c2nc(cs2)C(=O)NC(C(C)O)C(=O)NC(=C(C)OC)c2nc(cs2)C(=O)NC2c4nc(cs4)C(=O)NC(COC(=O)c4c5c6c(cccc6n4O)COC(=O)C(OC4CC(C)(O)C(N(C)C)C(C)O4)C2OC5)c2nc-3cs2)n1)C(N)=O (stereo not shown),,"ICR mice, Streptococcus pneumoniae ATCC 49169 infected, immunocompromised, blood","intravenous, 4 mg/kg/day once daily",,AUC(0-t),311 ng·h/mL
CN([O-])C(=O)CN1CCN(CC(=O)N(C)[O-])CCN(Cc2ccccn2)CC1.[89Zr+4],,"mouse, liver","intravenous, 24 h",,tracer uptake,0.45 %ID/g
NS(=O)(=O)c1cccc(-c2ccc([C@H]3[C@@H](F)[C@@H](F)C[C@@H](F)[C@H]3F)cc2)c1,hepatocyte stability,cryopreserved mouse hepatocytes,1 µM,,hepatic clearance,21 mL/min/kg
C=C1C[C@]2(C(=O)OC)C=C(C(=O)Nc3cccc(C(=O)Nc4ccc(Nc5nccc(-c6cccnc6)n5)c(C)c4)c3)C(=O)[C@H]1C2,,"Wistar rat, male, plasma","10 µM, 120 min",,compound remaining,0.79% and 0.58%
O=C(N1CCCCC1)C12CC(c3ccccc3)(C1)C2(F)F,,pooled human liver microsomes,"2 µM, pH 7.4",,elimination rate constant,0.000133 s⁻¹
Cc1nn(-c2nc3c(F)cc(F)cc3s2)c(O)c1C(c1ccc(C(F)(F)F)cc1)c1c(C)nn(-c2nc3c(F)cc(F)cc3s2)c1O,,"ICR mouse, plasma","intravenous, 5 mg/kg",,AUC extrapolated observed,28.1% and 3.3% and 8.78%
CCc1cnc(NC(=O)c2cc(S(=O)(=O)N3CCOCC3)ccc2N(C)C2CCCC2)s1,,"mouse, serum","10 mg/kg, 3 doses",,Magnesium,2.1 mEq/L
COC1C(c2ccc(Cl)c(Cc3ccc(OC4CCOC4)cc3)c2)OC(CO)C(O)C1O (stereo not shown),,human plasma,"1 µM, 5 h",,unbound fraction,0.161
CCN(CC)c1ccc2c(c1)O[B-]1(c3c(C)cccc3C)OC(=O)C(c3ccccc3)=N[N+]1=C2 (stereo not shown),,toluene,,,fluorescence lifetime,0.45 ns
CCCN(C)c1cc(C(F)(F)F)nc(SCCC(=O)NCc2ccco2)n1,electrocardiography,Wistar rat,"intraperitoneal, 25 mg/kg, 2 h post-dose, isoflurane anaesthesia",relative to: vehicle control,ECG parameters,no effect
CSCc1cn(-c2cccc(C(=O)N3CCC(c4nc(-c5ccccc5)n[nH]4)CC3)c2)nn1,PAMPA,artificial lipid membrane,30 min,,permeability,240 ± 115 ×10⁻⁶ cm/s
CC[C@H](C)[C@H](NC(=O)[C@H](CCC(N)=O)NC(=O)[C@@H](NC(=O)[C@@H]1CCCN1[C@@H]1CN(C(=O)[C@H](CCCCN)NC(=O)[C@H](CC(N)=O)NC(=O)[C@@H](NC(=O)[C@@H](NC(=O)[C@H](CCC(N)=O)NC(=O)[C@@H](N)C(C)C)[C@@H](C)CC)[C@@H](C)CC)CC[C@H]1NS(=O)(=O)c1ccc(C)cc1)C(C)C)C(=O)N[C@H](C(=O)N[C@@H](Cc1ccc(O)cc1)C(=O)N[C@@H](CCCCN)C(N)=O)C(C)C,CD spectroscopy,20 mM phosphate buffer,"125 µM, 20 °C",,helix content,7.2%
C=CC(=O)Nc1cc(Nc2nccc(-c3cn(C)c4ccccc34)n2)c(OC)cc1N(C)CCNC,,human plasma,"72 h, storage stability, LLOQ sample",,recovery,51.2%
COc1cccc(OC)c1-c1cc(C(=O)NC2(C(=O)O)C3CC4CC(C3)CC2C4)nn1-c1ccc(C(=O)N(C)CCOCCN(C)C(=O)[C@H](CCCCNC(=O)[C@H](CC(C)C)NC(=O)C2OC2C(=O)O)NC(=O)CN2CCN(CC(=O)[O-])CCN(CC(=O)[O-])CCN(CC(=O)[O-])CC2)cc1C(C)C.[177Lu+3] (mixture of isomers),,"mouse, HT-29 xenograft","24 h post injection, biodistribution",relative to: tumour over kidney uptake,tumour-to-kidney ratio,0.41
CC[C@H](C)[C@@H]1NC(=O)[C@H](Cc2ccc(O)cc2)NC(=O)CCCSC[C@@H](C(=O)N(CC(=O)N[C@@H](CC(C)C)C(=O)NCC(N)=O)Cc2ccc(F)cc2)NC(=O)[C@H](CC(N)=O)NC(=O)[C@H](CCC(N)=O)NC1=O,,human,"intranasal, 400 µg single dose",,AE leading to discontinuation,0%
C=C[C@]1(C)C[C@@H](OC(=O)CSc2ccc(NC(=O)c3ccco3)cc2)[C@]2(C)[C@H](C)CC[C@]3(CCC(=O)[C@H]32)[C@@H](C)[C@@H]1O,,"Mycoplasma gallisepticum-infected chickens, plasma","intramuscular, 40 mg/kg, 24 h",,plasma concentration,1.81 ng/mL and 2.85 ng/mL and 7.31 ng/mL and 1.24 ng/mL
O=C(CN1CCOCC1)Nc1ccc(C2CCCCC2)cc1,hepatocyte stability,cryopreserved mouse hepatocytes,1 µM,,hepatic clearance,78 mL/min/kg
C=Cc1ccccc1[B-]12OC(=O)C(c3ccccc3)=N[N+]1=C(C)c1ccc(N(CC)CC)cc1O2 (stereo not shown),,toluene,,,fluorescence quantum yield,0.5
COc1cccc(OC)c1-c1cc(C(=O)NC2(C(=O)O)C3CC4CC(C3)CC2C4)nn1-c1ccc(C(=O)N(C)CCCN(C)C(=O)[C@H](CCCCNC(=O)[C@H](CC(C)C)NC(=O)C2OC2C(=O)O)NC(=O)CN2CCN(CC(=O)[O-])CCN(CC(=O)[O-])CCN(CC(=O)[O-])CC2)cc1C(C)C.[177Lu+3] (mixture of isomers),,"mouse, HT-29 xenograft, spleen",24 h post injection,,tissue uptake,0.44 %ID/g
CN(C)c1cccc(-c2ccc(C3CCCCC3)cc2)c1,liver microsome stability,rat liver microsomes,1 µM,,hepatic clearance,41 mL/min/kg
COc1ccc2c(c1)O[B-]1(c3ccccc3)OC(=O)C(c3ccccc3)=N[N+]1=C2 (stereo not shown),,toluene,,,fluorescence lifetime,1.29 ns
O=C1C2CC3CC1CC(C(=O)N1CCN(c4ccc([N+](=O)[O-])c5ncccc45)CC1)(C3)C2,,"ICR mice male, plasma","intravenous, 1 mg/kg",,Vz,2.29 L/kg
COc1ccc(Nc2nc(Nc3ccc(OCCOCC[18F])cc3)ncc2Br)cc1,,"ICR mice, S180 tumour","intravenous, 370 kBq, 60 min",relative to: tumour over bone,uptake ratio,1
CC(C)C[C@@H](NC(=O)[C@H](NC(=O)[C@H]1CCCN1)[C@H](C)O)C(=O)N[C@H](Cc1c[nH]cn1)C(=O)N[C@@H](C(=O)N[C@H](Cc1c[nH]cn1)C(=O)N[C@H](CC(N)=O)C(=O)N[C@H](CCCNC(=N)N)C(=O)N[C@H](CCCNC(=N)N)C(=O)N[C@H](CCCNC(=N)N)C(=O)N[C@H](CCCNC(=N)N)C(=O)N[C@H](CCCNC(=N)N)C(N)=O)[C@H](C)O,,"Beagle dog, blood","oral, 30 mg/kg daily, 3 months",,cholesterol,5.4 ± 1.2 mmol/L
Nc1ncc(-c2ccc(C3CCCCC3)cc2)cn1,hepatocyte stability,cryopreserved rat hepatocytes,1 µM,,hepatic clearance,45 mL/min/kg
CC(C)(C)C(=O)Nc1ccc2[nH]c(CN3CCC(N(CCCN4CCOCC4)CC4OC(n5cnc6c(N)ncnc65)C(O)C4O)CC3)nc2c1 (stereo not shown),,"male Sprague-Dawley rat, plasma","intraperitoneal, 20 mg/kg, 4.98 min",,concentration,1720 ng/mL
CN1CCC[C@]1(C)/C=C/S(=O)(=O)NC(=O)Nc1c2c(cc3c1CC(O)C3)CCC2 (stereo partly shown),,"human, plasma","oral, 12.5 mg twice daily of parent drug, day 14, metabolite of dosed drug",,AUC(0-inf),51100 ng·h/mL
COc1ccc2c(c1)CN(C(=O)CCN1CCC(Cc3ccccc3)CC1)CCS2,,human plasma,7500 ng/mL,,fu,0.071
C=CC(=O)N1CCCC(n2c(=O)c3ncccc3n(Cc3ccc(Oc4ccccc4)cc3)c2=O)C1 (stereo not shown),metabolic stability,"human, hepatocytes","1 µM, 1 h",,compound remaining,48.1%
Cc1ccc(-c2ccc([C@H]3[C@@H](F)[C@@H](F)C[C@@H](F)[C@H]3F)cc2)cn1,hepatocyte stability,cryopreserved mouse hepatocytes,1 µM,,hepatic clearance,76 mL/min/kg
CN(O)C(=O)CCC(=O)NCCCN(CCCCN(CCCNC(=O)CCC(=O)N(C)O)C(=O)CCC(=O)N(C)O)C(=O)CCC(=O)N(C)O.[89Zr],radio-TLC,aqueous buffer,"7 d, pH 7.2, 37 °C, 89Zr-labelled complex, together with: FeCl3 10-fold excess",,intact complex,97.5 ± 1%
O=C(Nc1cnccc1-c1ccc([18F])nc1)c1ccnc(NC(=O)C2CC2)c1,ex vivo gamma counting,"FVB/NJ mice, both sexes, caudate nucleus","intravenous, 120 min",,mean SUV,0.026
CS(=O)(=O)c1ccc(-c2ccc([C@H]3[C@@H](F)[C@@H](F)C[C@@H](F)[C@H]3F)cc2)cn1,liver microsome stability,rat liver microsomes,1 µM,,hepatic clearance,6.1 mL/min/kg
C=CC(=O)Nc1cc(Nc2nccc(-c3c[nH]c4ccccc34)n2)c(OC)cc1N(C)CCN(C)C,storage stability,human dried blood spot samples,"30 d, -80 °C, LLOQ level",relative to: nominal concentration,percentage recovery,42.2%
O=C(Oc1cccc(CSc2ncccn2)c1)c1ccc([N+](=O)[O-])cc1,,mouse liver microsomes,"5 min, together with: with or without NADPH",,parent compound detection,not detected
Fc1ccc(OCC2CN(Cc3ncc4ccccn34)CCC2(F)F)cc1 (stereo not shown),equilibrium dialysis,mouse plasma,,,fu,0.0001
COc1cccc(OC)c1-c1cc(C(=O)NC2(C(=O)O)C3CC4CC(C3)CC2C4)nn1-c1ccc(C(=O)N(C)CCOCCOCCN(C)C(=O)[C@H](CCCCNC(=O)[C@H](CC(C)C)NC(=O)C2OC2C(=O)O)NC(=O)CN2CCN(CC(=O)[O-])CCN(CC(=O)[O-])CCN(CC(=O)[O-])CC2)cc1C(C)C.[177Lu+3] (mixture of isomers),,"mouse HT-29 xenograft, large intestine","168 h post injection, biodistribution",,tissue uptake,0.056 %ID/g
CC(C)=CCc1cc(C(=O)/C=C/c2ccc(O)cc2)c(O)cc1O,phase I metabolism,rat liver microsomes,,,CLint,13.3 µL/min/mg
C/C(N)=N/C(=N\S(=O)(=O)c1ccc(C(F)(F)F)cc1)N1C[C@H](c2ccccc2)C(c2ccc(Cl)cc2)=N1,,"beagle dog, plasma","oral, 18 mg/kg",,AUC(0-inf),25200 ng·h/mL
CCCCCCCOc1ccc(CC[C@](N)(CO)COP(=O)(O)O)cc1C(F)(F)F,,"healthy men, plasma","oral, 0.75 mg once daily, day 21, fed state",,AUCτ,195 ng·h/mL
COc1cccc(OC)c1-c1cc(C(=O)NC2(C(=O)O)C3CC4CC(C3)CC2C4)nn1-c1ccc(C(=O)N(C)CCCN(C)CCCN(C)C(=O)[C@H](CCCCNC(=O)[C@H](CC(C)C)NC(=O)C2OC2C(=O)O)NC(=O)CN2CCN(CC(=O)[O-])CCN(CC(=O)[O-])CCN(CC(=O)[O-])CC2)cc1C(C)C.[177Lu+3] (mixture of isomers),,"mouse, HT-29 xenograft","72 h post injection, biodistribution",relative to: tumour over kidney uptake,tumour-to-kidney ratio,1.41
COc1cc2ncnc(Oc3ccc(Nc4nccc5[nH]cc(-c6ccc(F)cc6)c(=O)c45)cc3F)c2cc1OC,,"male beagle dog, plasma","oral, 4 mg/kg",,AUC(0-t),40100 ng·h/mL
COc1cc(N2CCN(C(=O)C3CCCN3)CC2)ccc1Nc1ncc(Cl)c(Nc2ccccc2P(C)(C)=O)n1 (stereo not shown),,"nude mice, NCI-H3122 xenograft","oral, dose not given, day 15",,body weight,25 g and 23.2 g and 23 g and 23.7 g and 23.5 g
COC1C=COC2(C)Oc3c(C)c(O)c4c(c3C2=O)C2=NC3(CCN(CC(C)C)CC3)NC2=C(NC(=O)C(C)=CC=CC(C)C(O)C(C)C(O)C(C)C(OC(=O)Nc2cscn2)C1C)C4=O (stereo not shown),,"CD-1 mouse, plasma","oral, dose not given, efficacy dose",,AUC,40000 ng·h/mL
COc1ccc(-c2ccc(C3CCCCC3)cc2)cc1OC,hepatocyte stability,cryopreserved mouse hepatocytes,1 µM,,hepatic clearance,34 mL/min/kg
O=C(Nc1cnccc1-c1ccc([18F])cc1)c1ccnc(NC(=O)C2CC2)c1,ex vivo gamma counting,"GSK-3β transgenic mice, early-stage, brain stem","intravenous, 120 min, together with: tariquidar 15 mg/kg iv",,mean SUV,0.24
O=C(CC(F)(F)F)Nc1ccc(C2CCCCC2)cc1,hepatocyte stability,cryopreserved rat hepatocytes,1 µM,,hepatic clearance,48 mL/min/kg
N#Cc1cccc(N2CN(CC(=O)NCC(F)(F)F)C(=O)C23CCN(C(=O)c2cnc4[nH]ncc4c2)CC3)c1,,human liver microsomes,,,CLint,10 µL/min/mg protein
Cc1ccc(OCC(=O)N(Cc2cccs2)c2ccn[nH]2)cc1,,monkey plasma,"750 ng/mL, 2 h, 37 °C, unit not given",relative to: time zero,remaining compound,83.1

# For quick reference, copied from above:
SMILES,assay,system,setting,scale,endpoint,value
CC(C)(C)C(=O)Nc1ccc2[nH]c(CN3CCC(N(CCCN4CCOCC4)CC4OC(n5cnc6c(N)ncnc65)C(O)C4O)CC3)nc2c1 (stereo not shown),,"male Sprague-Dawley rat, plasma","intraperitoneal, 20 mg/kg, 4.98 min",,concentration,1720 ng/mL
COc1ccc(-c2ccc(C3CCCCC3)cc2)cc1OC,hepatocyte stability,cryopreserved mouse hepatocytes,1 µM,,hepatic clearance,34 mL/min/kg
CN(O)C(=O)CCC(=O)NCCCN(CCCCN(CCCNC(=O)CCC(=O)N(C)O)C(=O)CCC(=O)N(C)O)C(=O)CCC(=O)N(C)O.[89Zr],radio-TLC,aqueous buffer,"7 d, pH 7.2, 37 °C, 89Zr-labelled complex, together with: FeCl3 10-fold excess",,intact complex,97.5 ± 1%
